# Published values pooled from the literature.
# “And” joins repeats or separate records; there may be more than shown. ± marks the error that the study gave.
Compound,organism,test,system,setting,scale,endpoint,result
CC[C@H](C)[C@H](NC(=O)[C@H](C)NC(=O)CNC(=O)[C@H](C)NC(=O)[C@H](CCCCN)NC(=O)[C@H](CO)NC(=O)[C@H](C)NC(=O)[C@H](CCSC)NC(=O)CN)C(=O)N[C@@H](C)C(=O)NCC(=O)N[C@@H](CCCCN)C(=O)N[C@H](C(=O)N[C@@H](C)C(=O)N[C@@H](CCCCN)C(=O)N[C@H](C(=O)N[C@@H](C)C(=O)N[C@@H](CC(C)C)C(=O)N[C@@H](CCCCN)C(=O)N[C@@H](C)C(=O)N[C@@H](CC(C)C)C(N)=O)C(C)C)[C@@H](C)CC,Escherichia coli,,0370 nalidixic acid resistant,"Loewe additivity, together with: nalidixic acid",,combination index,1.09
COc1cc(C(SC(C)C)SC(C)C)ccc1OCCNS(=O)(=O)c1ccc(C)cc1,Tobacco mosaic virus,protective activity,plant in vivo,,,EC50,567.9 ± 4.6 µg/mL
CNCCO.O=C(O)C(Cl)Cl,Eclipta prostrata,,,"15 mg/mL, 21 days, post-emergence, greenhouse",,herbicidal inhibition,0%
C[C@@]1(O)[C@H](O)[C@@H](CO)O[C@H]1n1ccc2c(N)ncnc21,dengue virus type 2,"viral replication, Renilla luciferase reporter virus",Huh-7.5.1,48 h,,EC50,1140 nM
Cc1cc(N2CCC(C#N)(C3(C)CC3)C2=O)cc(C(=O)NCc2cc(F)cc(-c3cnn(C)c3)c2)n1 (racemic),Plasmodium falciparum,"parasite growth, [3H]hypoxanthine incorporation","Dd2 DSM265-resistant, Pfdhodh mutant",,,IC50,19 nM
COc1cc(C(SC(C)C)SC(C)C)ccc1OCCNS(=O)(=O)c1ccc(F)c(Cl)c1,Tobacco mosaic virus,protective activity,plant in vivo,,,EC50,631.1 ± 2.9 µg/mL
CCOC(=O)C1(Cc2ccc(C(F)(F)F)cc2)Oc2cc(F)ccc2N(Cc2ccc(C(F)(F)F)cc2)C1=O (centres unmarked),Eclipta prostrata,"fresh weight, greenhouse postemergence",,"postemergence, 150 g ai/ha, 21 days",,inhibition,59.1 ± 3.76%
O=[N+]([O-])c1ccc(C2=[N+]([O-])c3ccccc3N3CCCN=C23)cc1,Prevotella spp.,bacterial growth,,,,MIC90,0.125 µg/mL
COc1cc(C(SC(C)C)SC(C)C)ccc1OCCNS(=O)(=O)c1ccc(Cl)cc1,Tobacco mosaic virus,inactivation activity,plant in vivo,,,EC50,57.7 ± 1.4 µg/mL
O=C(NNc1ccccc1)c1nnc(C23CC4CC(CC(C4)C2)C3)o1,Sclerotinia sclerotiorum,microbial growth,,50 µg/mL,,inhibition,76.3%
COC(=O)C1=CO[C@@H](C)[C@@H]2Cn3ccc4c5ccccc5nc-4c3C[C@H]12,Plasmodium falciparum,growth,"C2B, atovaquone-resistant",96 h,,IC50,125 ± 59 nM
CC[C@H](C)CCCCC(=O)N[C@@H](CCN)C(=O)N[C@H](C(=O)N[C@@H](CCN)C(=O)N[C@H]1CCNC(=O)[C@H]([C@@H](C)O)NC(=O)[C@H](CCN)NC(=O)[C@H](CCN)NC(=O)[C@H](CC(C)C)NC(=O)[C@@H](CC(C)C)NC(=O)[C@H](CCN)NC1=O)[C@@H](C)O,Escherichia coli,daily serial passaging,ATCC 8739,"highest sub-MIC, 49 days",baseline: initial MIC,MIC fold change,1.89
CC(O)CN(CC(C)O)CC(C)O.O=C(O)C(Cl)Cl (centres unmarked),Eleusine indica,,,"15 mg/mL, 21 days, pre-emergence, greenhouse",,herbicidal inhibition,0%
COc1cc(C(SC(C)C)SC(C)C)ccc1OCCNS(=O)(=O)c1ccc(F)cc1,Tobacco mosaic virus,protective activity,plant in vivo,,,EC50,312.4 ± 3.1 µg/mL
COc1ccc(C2=[N+]([O-])c3ccccc3N3CCN=C23)cc1,Parabacteroides distasonis and Bacteroides spp.,bacterial growth,,,,MIC50,≤ 0.06 µg/mL
CCc1nn(C)c2nc(-c3ccc(C(=O)O)cc3)nc(NCc3ccccc3)c12,Cryptosporidium parvum,,HCT-8,"EC90, 6 h",baseline: DMSO control,parasite number,62.9% and 104% and 67.5% and 87.4%
C#CCN1C(=O)C(CC#C)(C(=O)OCC)Oc2ccccc21 (centres unmarked),Sclerotinia sclerotiorum,microbial growth,,50 µg/mL,,inhibition,< 25%
Cc1ccc(N2CC3CC(C2)N3C)cc1C(=O)NC1(c2ccc3c4c(cccc24)C(=O)N3C)CC1,Human coronavirus NL63,viral replication,,10 nM,,inhibition,18.7%
CCOC(=O)C1(Cc2ccc(OC)cc2)Oc2cc(F)ccc2N(Cc2ccc(OC)cc2)C1=O (centres unmarked),Eclipta prostrata,"fresh weight, greenhouse postemergence",,"postemergence, 150 g ai/ha, 21 days",,inhibition,59.6 ± 3.23%
CN(C(=O)c1ccn2ncc(-c3ccc(C(N)=O)cc3)c2c1)c1ccc(C#N)cn1,Cryptosporidium parvum,,"UGA1 Nluc, IFN-gamma knockout C57BL/6 mice, faeces","oral, 10 mg/kg daily, 336 h post infection, treatment days 11-17",higher means more parasites,faecal Nluc luminescence,7330 a.u. and 899 a.u. and 717 a.u. and 195 a.u. and 236000 a.u.
CCOC(=O)C1(Cc2ccccc2)Oc2cc(F)ccc2N(Cc2ccccc2)C1=O (centres unmarked),Echinochloa crus-galli,,greenhouse,"postemergence, 150 g ai/ha, 21 days",,fresh weight inhibition,44.2 ± 2.35%
COc1cc(C(SC(C)C)SC(C)C)ccc1OCCNS(=O)(=O)c1ccc(Br)cc1,Tobacco mosaic virus,inactivation activity,plant in vivo,,,EC50,63.8 ± 1.2 µg/mL
Cc1cc(C(=O)Nc2nc3cccc(C)c3n2[C@H]2CCCCN(C(=O)/C=C/CN(C)C)C2)ccn1,Trypanosoma brucei,"propidium iodide flow cytometry, item: S phase",bloodstream parental line,concentration not given,,cell cycle distribution,16.6% and 15.8% and 18.2%
CCCSC(SCCC)c1ccc(OCCNS(=O)(=O)c2cccc(Br)c2)c(OC)c1,Tobacco mosaic virus,inactivation activity,plant in vivo,,,EC50,1546.8 ± 0.8 µg/mL
CCOC(=O)C1(Cc2ccccc2)Oc2cc(C)ccc2N(Cc2ccccc2)C1=O (centres unmarked),Echinochloa crus-galli,"fresh weight, greenhouse postemergence",,"postemergence, 150 g ai/ha, 21 days",,inhibition,55.9 ± 2.32%
Cc1ccc(S(=O)(=O)NCCOc2ccc(C(SC(C)C)SC(C)C)cc2Cl)cc1,Tobacco mosaic virus,inactivation activity,plant in vivo,,,EC50,1232.3 ± 0.4 µg/mL
C[N+]1=C2C(c3ccc(Cl)cc3)=[N+]([O-])c3ccccc3N2CCC1,Parabacteroides distasonis and Bacteroides spp.,bacterial growth,,,,MIC90,8 µg/mL
CCCSC(SCCC)c1ccc(OCCNS(=O)(=O)c2ccc(C)cc2)c(OC)c1,Tobacco mosaic virus,inactivation activity,plant in vivo,,,EC50,156.5 ± 0.8 µg/mL
[O-][N+]1=C(c2ccccc2)C2=NCCN2c2ccccc21,Parabacteroides distasonis and Bacteroides spp.,bacterial growth,,,,MIC90,≤ 0.06 µg/mL

# A few entries again:
Compound,organism,test,system,setting,scale,endpoint,result
C[C@@]1(O)[C@H](O)[C@@H](CO)O[C@H]1n1ccc2c(N)ncnc21,dengue virus type 2,"viral replication, Renilla luciferase reporter virus",Huh-7.5.1,48 h,,EC50,1140 nM
Cc1cc(N2CCC(C#N)(C3(C)CC3)C2=O)cc(C(=O)NCc2cc(F)cc(-c3cnn(C)c3)c2)n1 (racemic),Plasmodium falciparum,"parasite growth, [3H]hypoxanthine incorporation","Dd2 DSM265-resistant, Pfdhodh mutant",,,IC50,19 nM
COc1cc(C(SC(C)C)SC(C)C)ccc1OCCNS(=O)(=O)c1ccc(F)c(Cl)c1,Tobacco mosaic virus,protective activity,plant in vivo,,,EC50,631.1 ± 2.9 µg/mL
CCOC(=O)C1(Cc2ccc(C(F)(F)F)cc2)Oc2cc(F)ccc2N(Cc2ccc(C(F)(F)F)cc2)C1=O (centres unmarked),Eclipta prostrata,"fresh weight, greenhouse postemergence",,"postemergence, 150 g ai/ha, 21 days",,inhibition,59.1 ± 3.76%
